Experimental data from different studies.
Protocols differ between the studies behind these lines.
Read-out: binding
SIK1: Serine/threonine-protein kinase SIK1 (SIK1, Homo sapiens, UniProt P57059)
Sequence of UniProt P57059 (whole entry, looked up): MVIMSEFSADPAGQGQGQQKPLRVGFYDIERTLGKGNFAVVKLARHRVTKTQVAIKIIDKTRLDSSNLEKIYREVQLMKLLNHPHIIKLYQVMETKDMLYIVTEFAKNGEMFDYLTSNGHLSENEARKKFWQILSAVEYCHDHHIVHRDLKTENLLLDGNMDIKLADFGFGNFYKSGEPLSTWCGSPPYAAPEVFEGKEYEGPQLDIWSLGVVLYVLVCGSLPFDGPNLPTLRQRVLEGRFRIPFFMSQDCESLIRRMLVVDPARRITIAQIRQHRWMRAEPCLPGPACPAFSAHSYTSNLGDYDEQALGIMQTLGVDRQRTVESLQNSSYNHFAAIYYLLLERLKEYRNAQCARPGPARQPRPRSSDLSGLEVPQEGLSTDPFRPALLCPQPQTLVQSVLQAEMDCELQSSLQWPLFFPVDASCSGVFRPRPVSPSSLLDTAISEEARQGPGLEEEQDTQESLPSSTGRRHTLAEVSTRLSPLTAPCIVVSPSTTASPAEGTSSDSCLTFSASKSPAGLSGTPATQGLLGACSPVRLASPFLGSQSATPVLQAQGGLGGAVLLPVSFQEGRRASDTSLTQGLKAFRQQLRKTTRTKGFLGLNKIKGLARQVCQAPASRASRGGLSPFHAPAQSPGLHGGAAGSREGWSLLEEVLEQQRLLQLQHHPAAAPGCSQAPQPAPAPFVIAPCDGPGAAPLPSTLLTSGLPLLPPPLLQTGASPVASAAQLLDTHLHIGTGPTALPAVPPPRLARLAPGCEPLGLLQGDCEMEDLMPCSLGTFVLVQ
Sequence of UniProt Q9H2K8 (whole entry, looked up): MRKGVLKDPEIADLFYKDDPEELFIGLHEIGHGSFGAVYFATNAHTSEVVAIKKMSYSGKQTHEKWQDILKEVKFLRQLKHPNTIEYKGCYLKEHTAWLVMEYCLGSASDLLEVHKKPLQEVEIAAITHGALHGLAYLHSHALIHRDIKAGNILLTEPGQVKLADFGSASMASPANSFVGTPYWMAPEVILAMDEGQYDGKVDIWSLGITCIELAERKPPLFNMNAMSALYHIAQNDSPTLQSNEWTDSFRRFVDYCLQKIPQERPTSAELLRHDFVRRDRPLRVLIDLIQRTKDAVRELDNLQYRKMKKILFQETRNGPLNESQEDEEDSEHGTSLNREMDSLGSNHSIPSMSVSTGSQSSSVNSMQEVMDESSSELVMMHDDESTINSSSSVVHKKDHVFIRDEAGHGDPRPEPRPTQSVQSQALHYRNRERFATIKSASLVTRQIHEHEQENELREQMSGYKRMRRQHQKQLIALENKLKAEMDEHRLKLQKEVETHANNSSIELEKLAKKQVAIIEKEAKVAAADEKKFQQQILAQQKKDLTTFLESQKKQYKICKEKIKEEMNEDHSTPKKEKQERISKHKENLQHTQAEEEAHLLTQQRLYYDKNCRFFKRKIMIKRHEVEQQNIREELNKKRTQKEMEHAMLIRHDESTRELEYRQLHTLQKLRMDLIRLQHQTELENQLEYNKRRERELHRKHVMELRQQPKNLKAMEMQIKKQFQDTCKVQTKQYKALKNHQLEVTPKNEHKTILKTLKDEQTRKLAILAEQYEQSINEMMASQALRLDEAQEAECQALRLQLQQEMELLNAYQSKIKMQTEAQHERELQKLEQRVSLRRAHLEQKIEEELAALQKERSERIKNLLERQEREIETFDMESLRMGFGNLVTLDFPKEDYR
Sequence of UniProt Q16539 (whole entry, looked up): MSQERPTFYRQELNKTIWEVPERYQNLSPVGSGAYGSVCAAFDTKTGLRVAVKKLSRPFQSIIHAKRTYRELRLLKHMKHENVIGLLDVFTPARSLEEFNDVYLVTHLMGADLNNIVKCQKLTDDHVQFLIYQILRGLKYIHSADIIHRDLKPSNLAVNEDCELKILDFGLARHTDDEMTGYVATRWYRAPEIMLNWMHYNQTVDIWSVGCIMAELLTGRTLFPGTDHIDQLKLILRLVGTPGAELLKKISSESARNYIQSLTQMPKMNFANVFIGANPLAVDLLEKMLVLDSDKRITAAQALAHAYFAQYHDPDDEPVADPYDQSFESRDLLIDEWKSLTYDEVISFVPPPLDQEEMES
Sequence of UniProt Q6DT37 (whole entry, looked up): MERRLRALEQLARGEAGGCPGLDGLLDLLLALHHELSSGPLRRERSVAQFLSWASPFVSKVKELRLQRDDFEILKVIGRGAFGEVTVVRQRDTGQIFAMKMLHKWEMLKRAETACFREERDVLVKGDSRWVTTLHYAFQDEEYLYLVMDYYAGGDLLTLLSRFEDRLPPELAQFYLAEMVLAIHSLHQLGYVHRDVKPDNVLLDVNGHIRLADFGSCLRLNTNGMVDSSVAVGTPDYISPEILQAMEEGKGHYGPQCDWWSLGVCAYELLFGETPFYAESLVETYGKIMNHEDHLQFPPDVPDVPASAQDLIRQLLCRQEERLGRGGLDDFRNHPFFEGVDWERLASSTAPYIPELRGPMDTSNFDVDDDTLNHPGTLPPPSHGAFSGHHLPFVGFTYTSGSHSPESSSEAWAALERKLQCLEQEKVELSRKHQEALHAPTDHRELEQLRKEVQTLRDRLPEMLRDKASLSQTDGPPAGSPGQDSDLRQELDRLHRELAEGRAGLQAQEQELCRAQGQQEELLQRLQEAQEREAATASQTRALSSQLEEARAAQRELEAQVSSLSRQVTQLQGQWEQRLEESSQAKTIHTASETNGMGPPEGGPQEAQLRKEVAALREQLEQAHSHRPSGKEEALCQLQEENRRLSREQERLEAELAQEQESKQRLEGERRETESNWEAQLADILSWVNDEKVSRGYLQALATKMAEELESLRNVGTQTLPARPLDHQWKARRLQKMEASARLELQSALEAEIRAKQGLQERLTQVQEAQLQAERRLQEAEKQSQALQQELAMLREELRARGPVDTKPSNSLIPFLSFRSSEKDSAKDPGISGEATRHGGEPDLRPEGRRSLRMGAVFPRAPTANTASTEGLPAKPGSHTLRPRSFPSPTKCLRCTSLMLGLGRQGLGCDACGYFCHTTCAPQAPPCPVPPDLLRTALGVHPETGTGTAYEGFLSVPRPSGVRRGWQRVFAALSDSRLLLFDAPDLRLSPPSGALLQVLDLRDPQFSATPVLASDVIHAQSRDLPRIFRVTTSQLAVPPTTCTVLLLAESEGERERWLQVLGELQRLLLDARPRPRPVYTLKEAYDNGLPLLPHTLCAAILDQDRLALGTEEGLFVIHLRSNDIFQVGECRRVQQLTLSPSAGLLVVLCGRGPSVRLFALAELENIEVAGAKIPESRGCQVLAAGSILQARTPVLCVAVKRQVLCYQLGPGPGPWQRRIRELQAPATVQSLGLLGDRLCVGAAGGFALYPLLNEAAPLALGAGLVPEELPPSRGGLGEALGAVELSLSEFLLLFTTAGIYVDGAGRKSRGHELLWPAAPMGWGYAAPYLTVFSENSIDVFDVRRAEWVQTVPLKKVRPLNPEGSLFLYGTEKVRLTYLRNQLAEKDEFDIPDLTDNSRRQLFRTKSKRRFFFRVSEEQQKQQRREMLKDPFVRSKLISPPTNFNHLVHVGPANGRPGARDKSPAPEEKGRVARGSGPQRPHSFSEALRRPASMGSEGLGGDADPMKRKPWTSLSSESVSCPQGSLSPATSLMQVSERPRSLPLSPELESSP
Sequence of UniProt P42336 (whole entry, unmodified, looked up): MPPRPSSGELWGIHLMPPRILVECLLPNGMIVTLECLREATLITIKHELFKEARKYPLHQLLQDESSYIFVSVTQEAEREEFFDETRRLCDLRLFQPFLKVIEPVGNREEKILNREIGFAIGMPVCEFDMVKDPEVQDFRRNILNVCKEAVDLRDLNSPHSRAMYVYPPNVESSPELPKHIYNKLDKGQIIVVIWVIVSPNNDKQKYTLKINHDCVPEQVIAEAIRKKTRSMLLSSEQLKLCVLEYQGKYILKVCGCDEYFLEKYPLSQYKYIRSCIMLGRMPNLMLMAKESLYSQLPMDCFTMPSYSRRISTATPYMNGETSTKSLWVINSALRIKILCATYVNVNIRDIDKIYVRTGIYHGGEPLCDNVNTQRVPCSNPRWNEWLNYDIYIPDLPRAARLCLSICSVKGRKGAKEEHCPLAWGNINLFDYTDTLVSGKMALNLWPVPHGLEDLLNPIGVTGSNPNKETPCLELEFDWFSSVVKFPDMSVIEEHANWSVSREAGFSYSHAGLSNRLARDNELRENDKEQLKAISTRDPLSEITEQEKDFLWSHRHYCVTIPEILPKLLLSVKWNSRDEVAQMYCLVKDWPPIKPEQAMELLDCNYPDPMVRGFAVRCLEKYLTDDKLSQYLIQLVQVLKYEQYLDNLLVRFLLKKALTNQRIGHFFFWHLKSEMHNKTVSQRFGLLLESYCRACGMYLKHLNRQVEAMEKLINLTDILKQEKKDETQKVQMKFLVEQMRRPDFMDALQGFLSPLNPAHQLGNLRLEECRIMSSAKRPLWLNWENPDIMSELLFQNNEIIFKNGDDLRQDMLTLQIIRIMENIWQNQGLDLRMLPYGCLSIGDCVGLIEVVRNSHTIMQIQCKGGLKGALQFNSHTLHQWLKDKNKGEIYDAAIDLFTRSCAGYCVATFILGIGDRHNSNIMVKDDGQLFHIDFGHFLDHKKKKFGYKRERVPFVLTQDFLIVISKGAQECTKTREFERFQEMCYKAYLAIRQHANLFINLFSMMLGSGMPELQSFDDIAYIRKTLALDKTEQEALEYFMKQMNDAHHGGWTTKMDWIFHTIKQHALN

SMILES = N[C@@H]1CCN(c2nccc(-c3cnn4ncccc34)n2)C1; target = Serine/threonine-protein kinase MRCK gamma (CDC42BPG, Homo sapiens, UniProt Q6DT37); conditions = 1 µM; remaining binding = 100%
SMILES = COc1ccc2oc(-c3ccc4nc(N)oc4c3)c/c(=N\c3ccccc3NC(=O)CCN)c2c1; target = Tyrosine-protein kinase JAK1, JH1 (JAK1, Homo sapiens, UniProt P23458); conditions = 1 µM; remaining binding = 96%
SMILES = C=CC(=O)N1CCC(COCC(=O)N2CCN(c3nc(-c4cnc(N)nc4C(F)F)nc(N4CCOC[C@@H]4C)n3)CC2)CC1; target = Phosphatidylinositol 4,5-bisphosphate 3-kinase catalytic subunit alpha isoform (PIK3CA, Homo sapiens, UniProt P42336, E542K); assay = competition with immobilised ligand; conditions = 1 µM; remaining binding = 1.2%
SMILES = C[C@]1(O)CCCN(c2nc(Nc3ccc(S(=O)(=O)N[C@H]4CC[C@H](CN5CCN(c6ccc(C7CCC(=O)NC7=O)cc6F)CC5)CC4)cc3F)ncc2C(F)(F)F)C1 (stereo partly shown); target = Serine/threonine-protein kinase TAO3 (TAOK3, Homo sapiens, UniProt Q9H2K8); assay = competition with immobilised ligand; conditions = 1 µM; remaining binding = 61%
SMILES = Cc1cc([C@@H](C)Nc2ccccc2C(=O)O)c2nc(N3CCC(F)(F)CC3)c(C#N)c(=O)n2c1; target = Mitogen-activated protein kinase 14 (MAPK14, Homo sapiens, UniProt Q16539); assay = competition with immobilised ligand; conditions = 1 µM; remaining binding = 82%
SMILES = C1=C/COCc2cc(ccc2OCCN2CCCC2)Nc2nccc(n2)-c2cccc(c2)COC/1; target = RAC-gamma serine/threonine-protein kinase (AKT3, Homo sapiens, UniProt Q9Y243); conditions = 0.1 µM; remaining binding = 100%
SMILES = COc1ccnn2ncc(-c3ccnc(N(C)C)n3)c12; target = SIK1; conditions = 1 µM; remaining binding = 100%
SMILES = CCCCC(=O)Nc1ccc(-c2ccc3ncn(CCC)c(=O)c3c2)cn1; target = SRSF protein kinase 1 (SRPK1, Homo sapiens, UniProt Q96SB4); assay = competition with immobilised ligand; conditions = 0.5 µM; remaining binding = 100%
SMILES = FC(F)(F)Oc1cccc(-c2cnc3ccc(-c4ccncc4)nn23)c1; target = Ribosomal protein S6 kinase beta-1 (RPS6KB1, Homo sapiens, UniProt P23443); assay = competition with immobilised ligand; conditions = 5 µM; remaining binding = 93%
SMILES = CN(C)c1nccc(-c2cnn3ncccc23)n1; target = SIK1; conditions = 1 µM; remaining binding = 100%

For quick reference, copied from above:
SMILES = N[C@@H]1CCN(c2nccc(-c3cnn4ncccc34)n2)C1; target = Serine/threonine-protein kinase MRCK gamma (CDC42BPG, Homo sapiens, UniProt Q6DT37); conditions = 1 µM; remaining binding = 100%
